Assay results of several laboratories.
Compare with care: the assays were run in different laboratories. “And” joins repeats or separate records; there may be more than shown. Numbers after ± are the reported error.

Under “fasting glucose change”, `CC[C@H](C)[C@H](NC(=O)[C@H](CCCN)NC(=O)[C@H](CC(=O)O)NC(=O)[C@H](CC(C)C)NC(=O)C(C)(CC(C)C)NC(=O)[C@@H](NC(=O)[C@H](CO)NC(=O)[C@H](Cc1ccc(O)cc1)NC(=O)[C@H](CC(=O)O)NC(=O)[C@H](CO)NC(=O)[C@@H](NC(=O)[C@H](Cc1ccccc1)NC(=O)[C@@H](NC(=O)CNC(=O)[C@H](CCC(=O)O)NC(=O)C(C)(C)NC(=O)[C@@H](N)Cc1ccc(O)cc1)[C@@H](C)O)[C@@H](C)CC)[C@@H](C)CC)C(=O)N[C@@H](Cc1c[nH]cn1)C(=O)N[C@@H](CCC(N)=O)C(=O)NC(C)(C)C(=O)N[C@@H](CC(=O)O)C(=O)N[C@@H](Cc1ccccc1)C(=O)N[C@H](C(=O)N[C@@H](CCC(=O)O)C(=O)N[C@@H](Cc1ccc(O)cc1)C(=O)N[C@@H](CCCCNC(=O)COCCOCCNC(=O)COCCOCCNC(=O)CC[C@H](NC(=O)CCCCCCCCCCCCCCCCCCC(=O)O)C(=O)O)C(=O)N[C@@H](CC(C)C)C(=O)N[C@@H](CCC(=O)O)C(=O)NCC(=O)NCC(=O)N1CCC[C@H]1C(=O)N[C@@H](CO)C(=O)N[C@@H](CO)C(=O)NCC(=O)N[C@@H](C)C(=O)N1CCC[C@H]1C(=O)N1CCC[C@H]1C(=O)N1CCC[C@H]1C(=O)N[C@@H](CO)C(N)=O)C(C)C` (stereo partly shown) is recorded as -2.2 mmol/L (human, type 2 diabetes; 25 mg weekly, day 29, 4 weeks dosing; relative to: placebo).
`COc1ccc(-c2cnnn2-c2cc(OC)c(OC)c(OC)c2)cc1N` gave an EC50 of 4.76 ± 0.5 nM (HeLa; cytotoxicity, nuclei counting; 24 h).
For `Cc1cc(/C=C/C#N)cc(C)c1Nc1nc(Nc2ccc(C#N)cc2)ncc1N`, the EC50 was 1.8 ± 0.1 nM (HIV-1; viral replication, single-round infection; RT mutant K103N/Y181C).
For `COCCCCCCn1ccn2cc(C(=O)NCc3ccc(F)cc3F)c(=O)c(O)c2c1=O`, the EC50 was 15 ± 1.6 nM (human immunodeficiency virus 1; single-round vector infection; integrase N155H).
The MIC of `CC[C@@H](C)[C@@H](NC(=O)[C@@H](CCCCN)NC(=O)[C@@H](CCCCN)NC(=O)[C@@H](CC(C)C)NC(=O)[C@@H](Cc1c[nH]c2ccccc12)NC(=O)CN)C(=O)NCC(=O)N[C@H](CCCCN)C(=O)N[C@H](CCCCN)C(=O)N[C@@H](C(=O)N[C@H](CCC(=O)O)C(=O)N[C@H](CCCNC(=N)N)C(=O)N[C@@H](C(=O)NCC(=O)N[C@H](CCC(N)=O)C(=O)N[C@H](Cc1c[nH]cn1)C(=O)N[C@@H](C(=O)N[C@H](CCCNC(=N)N)C(=O)N[C@H](CC(=O)O)C(=O)N[C@H](C)C(=O)N[C@@H](C(=O)N[C@@H](C(=O)N[C@H](CCC(N)=O)C(=O)N[C@@H](C(=O)N[C@@H](C(=O)NCC(=O)N[C@@H](C(=O)N[C@H](C)C(=O)N[C@H](CCC(N)=O)C(=O)N[C@H](CCC(N)=O)C(=O)N[C@H](C)C(=O)N[C@H](C)C(=O)N[C@H](CC(N)=O)C(=O)N[C@@H](C(=O)N[C@H](C)C(=O)N[C@H](C)C(=O)N[C@@H](C(=O)N[C@H](CC(C)C)C(=O)N[C@H](CCCCN)C(N)=O)[C@H](C)O)C(C)C)C(C)C)[C@H](C)CC)[C@H](C)O)[C@H](C)CC)[C@H](C)O)[C@H](C)O)C(C)C)[C@H](C)CC` is reported as over 1020 µg/mL (Pseudomonas aeruginosa; isolate RKI 93/12, CAMHB).
`Nc1ncnc2c1ncn2C1CCC(OC(C(=O)O)P(=O)(O)O)C1` (racemic) gave a fold resistance of 0.7 fold (HIV-1 reverse transcriptase E138K; enzyme activity, inhibitor; with: poly(rU)·oligo(dA), [3H]dATP; relative to: mutant over wild type).
For `CC(C)N1CCn2cc(C(=O)NCc3ccc(F)cc3F)c(=O)c(O)c2C1=O`, the EC50 was 4.7 ± 0.4 nM (human immunodeficiency virus 1; single-round vector infection; integrase S230N).
`Cc1cc(/C=C/C#N)cc(C)c1-n1cnc2cnc(Nc3ccc(C#N)cc3)nc21` has an EC50 of 0.1 nM (HIV-1; viral replication, single-round infection; RT mutant V111A).
The EC50 of `COCC(C)N1CCn2cc(C(=O)NCc3ccc(F)cc3F)c(=O)c(O)c2C1=O` (stereo not shown) is reported as 14.4 ± 3.2 nM (human immunodeficiency virus 1; single-round vector infection; integrase S230N).
`Cc1ccc(NS(=O)(=O)c2c(C(=O)N3CCCCCC3)c(C)n(C)c2C)c(Cl)c1` gave an infection of 104% and 89.5% and 97.2% (Vaccinia virus; viral infection; HaCaT; 0.015 µM, 36 h; relative to: untreated).
For `CC[C@H](C)[C@H](NC(=O)[C@H](CC(C)C)NC(=O)[C@H](CCCCN)NC(=O)[C@@H](N)CCCCN)C(=O)N[C@H](C(=O)N[C@@H](Cc1ccccc1)C(=O)N[C@H](C(=O)N1CCC[C@H]1C(=O)N[C@@H](CCCCN)C(=O)N[C@@H](CCCCN)C(=O)N[C@H](C(=O)N[C@@H](CCCNC(=N)N)C(=O)N[C@@H](CCC(=O)O)C(=O)N[C@@H](CCCCN)C(=O)N[C@@H](CCCCN)C(=O)N[C@@H](CCCCN)C(=O)N[C@@H](CCC(=O)O)C(=O)N[C@@H](CS)C(=O)N[C@@H](CC(C)C)C(=O)N[C@H](C(=O)O)C(C)C)[C@@H](C)O)[C@@H](C)CC)[C@@H](C)O`, “decay time constant” read 5.9 ± 0.6 ms (TTX-sensitive sodium channel (mouse); resurgent sodium current, open-channel blocker, whole-cell patch clamp; mouse hippocampal CA3 neurons; 200 µM intracellular, 22 °C, step to +30 mV, 10 ms, with: repolarisation to -30 mV).
For `O=C(NCc1ccc(F)cc1F)c1cn2ccn(CCCCCCO)c(=O)c2c(O)c1=O`, the EC50 was 295 ± 19 nM (human immunodeficiency virus 1; single-round vector infection; integrase G140S/Q148H).
`CC[C@H](C)[C@H](NC(=O)[C@H](CCCCN)NC(=O)[C@H](Cc1ccc(O)cc1)NC(=O)[C@H](CCC(N)=O)NC(=O)[C@H](Cc1c[nH]cn1)NC(=O)[C@@H](NC(=O)[C@H](Cc1ccccc1)NC(=O)[C@H](Cc1c[nH]cn1)NC(=O)[C@@H](NC(=O)[C@@H](NC(=O)CNC(=O)[C@H](CCCNC(=N)N)NC(=O)[C@H](Cc1c[nH]c2ccccc12)NC(=O)[C@H](CC(C)C)NC(=O)[C@H](CO)NC(=O)[C@H](CCC(=O)O)NC(=O)[C@H](CC(C)C)NC(=O)[C@H](CCC(=O)O)NC(=O)[C@H](CC(N)=O)NC(=O)[C@H](CC(C)C)NC(=O)[C@H](CC(=O)O)NC(=O)[C@H](CO)NC(=O)[C@H](CCC(=O)O)NC(=O)[C@@H](NC(=O)[C@H](CC(C)C)NC(=O)[C@H](CCC(N)=O)NC(=O)[C@H](CCC(=O)O)NC(=O)[C@H](CCC(=O)O)NC(=O)[C@H](CC(C)C)NC(=O)[C@@H]1CCCN1C(=O)[C@@H](N)Cc1ccccc1)[C@@H](C)O)[C@@H](C)O)[C@@H](C)O)C(C)C)C(=O)N[C@@H](CCSC)C(=O)N1CCC[C@H]1C(=O)N[C@@H](Cc1ccccc1)C(=O)N[C@@H](CCCNC(=N)N)C(=O)N[C@@H](CCCCN)C(=O)N[C@@H](CC(C)C)C(=O)N[C@H](C(=O)N[C@@H](Cc1ccccc1)C(=O)N[C@@H](CCCCN)C(=O)N[C@@H](CCCNC(=N)N)C(=O)N[C@@H](CCCNC(=N)N)C(=O)N[C@@H](CCCCN)C(=O)N[C@@H](CC(N)=O)C(N)=O)C(C)C` gave an MIC of over 50 µM (Escherichia coli; ATCC 35218, MHC medium with bicarbonate).
`CC[C@H](C)[C@@H]1NC(=O)[C@H](CC(=O)O)NC(=O)[C@H]([C@@H](C)O)NC(=O)[C@@H]2CSSC[C@@H]3NC(=O)[C@H](CC(C)C)NC(=O)[C@H](CC(N)=O)NC(=O)[C@H](CC(C)C)NC(=O)[C@H](CCCNC(=N)N)NC(=O)[C@H](Cc4ccc(O)cc4)NC(=O)[C@H](CC(N)=O)NC(=O)[C@H](CCSC)NC(=O)[C@H](CO)NC(=O)[C@H]([C@@H](C)O)NC(=O)[C@H](CCCNC(=N)N)NC(=O)[C@H](CSSC[C@H](NC(=O)[C@H]([C@@H](C)O)NC(=O)[C@H](CCCCN)NC(=O)[C@H](CCCNC(=N)N)NC3=O)C(=O)NCC(=O)N[C@@H](CO)C(=O)N[C@H](C(=O)O)CSSC[C@H](NC(=O)[C@@H](NC(=O)[C@@H](N)CCCNC(=N)N)[C@@H](C)O)C(=O)N[C@@H](CCCCN)C(=O)N[C@@H](CC(=O)O)C(=O)N[C@@H](CC(C)C)C(=O)N[C@@H]([C@@H](C)CC)C(=O)N3CCC[C@H]3C(=O)N[C@@H](C(C)C)C(=O)N[C@@H](CO)C(=O)N[C@@H](CCC(=O)O)C(=O)N2)NC(=O)[C@H](CCCNC(=N)N)NC1=O` gave a kon of 380000 ± 50000 M⁻¹ s⁻¹ (KcsA-Shaker channel; two-electrode voltage clamp; Xenopus oocytes; 0 mV).
`CC(C)n1ccn2cc(C(=O)NCc3ccc(F)cc3F)c(=O)c(O)c2c1=O` has an EC50 of 26.7 ± 3.2 nM (human immunodeficiency virus 1; single-round vector infection; integrase G118R).
`CCCCCCCCCCCCCCCCCC(=O)N[C@@H](CCC(=O)NCCCC[C@H](NC(=O)[C@H](CCC(N)=O)NC(=O)[C@H](CCCCN)NC(=O)[C@H](CO)NC(=O)[C@H](CC(C)C)NC(=O)[C@H](CC(=O)O)NC(=O)[C@H](CO)NC(=O)[C@@H](NC(=O)[C@H](Cc1ccccc1)NC(=O)[C@@H](NC(=O)CNC(=O)[C@H](CCC(N)=O)NC(=O)[C@@H](CO)NC(=O)[C@@H](N)Cc1c[nH]cn1)[C@@H](C)O)[C@@H](C)O)C(=O)N[C@@H](CC(=O)O)C(=O)N[C@@H](CCC(=O)O)C(=O)N[C@@H](CCC(N)=O)C(=O)N[C@@H](CC(C)C)C(=O)N[C@@H](C)C(=O)N[C@@H](CCCCN)C(=O)N[C@@H](CC(=O)O)C(=O)N[C@@H](Cc1ccccc1)C(=O)N[C@H](C(=O)N[C@@H](CCC(=O)O)C(=O)N[C@@H](Cc1c[nH]c2ccccc12)C(=O)N[C@@H](CC(C)C)C(=O)N[C@@H](CCCCN)C(=O)N[C@@H](C)C(=O)NCC(=O)NCC(=O)N1CCC[C@H]1C(=O)N[C@@H](CO)C(=O)N[C@@H](CO)C(=O)NCC(=O)N[C@@H](C)C(=O)N1CCC[C@H]1C(=O)N1CCC[C@H]1C(=O)N1CCC[C@H]1C(=O)N[C@@H](CO)C(N)=O)[C@@H](C)CC)C(=O)O` gave a blood glucose of under 100 mg/dL (cynomolgus monkey, obese diabetic; dose not given, initial decrease after dosing).

Excerpt of the above:
For `O=C(NCc1ccc(F)cc1F)c1cn2ccn(CCCCCCO)c(=O)c2c(O)c1=O`, the EC50 was 295 ± 19 nM (human immunodeficiency virus 1; single-round vector infection; integrase G140S/Q148H).
